Measured values gathered from unrelated publications.
Each numbered part is a random draw from the data of one study; scales do not carry over between parts.
Chain of UniProt P21802 (whole entry, looked up): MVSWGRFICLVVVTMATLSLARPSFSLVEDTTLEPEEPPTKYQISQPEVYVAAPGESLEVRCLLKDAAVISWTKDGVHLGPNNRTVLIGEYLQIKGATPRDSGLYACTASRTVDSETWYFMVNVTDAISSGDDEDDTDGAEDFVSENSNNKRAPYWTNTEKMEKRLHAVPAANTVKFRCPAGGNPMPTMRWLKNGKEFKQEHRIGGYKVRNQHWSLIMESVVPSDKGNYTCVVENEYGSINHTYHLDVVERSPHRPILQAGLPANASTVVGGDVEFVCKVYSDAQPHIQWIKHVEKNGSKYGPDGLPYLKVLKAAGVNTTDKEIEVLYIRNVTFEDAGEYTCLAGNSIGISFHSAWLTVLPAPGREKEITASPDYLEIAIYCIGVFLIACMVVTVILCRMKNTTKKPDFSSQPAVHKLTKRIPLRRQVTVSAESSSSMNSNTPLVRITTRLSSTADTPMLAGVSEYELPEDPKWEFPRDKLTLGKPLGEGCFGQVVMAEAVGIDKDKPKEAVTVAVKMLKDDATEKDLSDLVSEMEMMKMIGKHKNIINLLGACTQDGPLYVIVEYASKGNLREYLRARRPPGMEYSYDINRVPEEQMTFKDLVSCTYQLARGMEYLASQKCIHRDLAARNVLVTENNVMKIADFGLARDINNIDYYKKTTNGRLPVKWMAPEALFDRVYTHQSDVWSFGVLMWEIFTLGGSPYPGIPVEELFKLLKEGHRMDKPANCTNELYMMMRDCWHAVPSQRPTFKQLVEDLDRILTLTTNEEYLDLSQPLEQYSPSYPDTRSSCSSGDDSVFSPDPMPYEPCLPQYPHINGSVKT
Chain of UniProt Q86UE8 (whole entry, looked up): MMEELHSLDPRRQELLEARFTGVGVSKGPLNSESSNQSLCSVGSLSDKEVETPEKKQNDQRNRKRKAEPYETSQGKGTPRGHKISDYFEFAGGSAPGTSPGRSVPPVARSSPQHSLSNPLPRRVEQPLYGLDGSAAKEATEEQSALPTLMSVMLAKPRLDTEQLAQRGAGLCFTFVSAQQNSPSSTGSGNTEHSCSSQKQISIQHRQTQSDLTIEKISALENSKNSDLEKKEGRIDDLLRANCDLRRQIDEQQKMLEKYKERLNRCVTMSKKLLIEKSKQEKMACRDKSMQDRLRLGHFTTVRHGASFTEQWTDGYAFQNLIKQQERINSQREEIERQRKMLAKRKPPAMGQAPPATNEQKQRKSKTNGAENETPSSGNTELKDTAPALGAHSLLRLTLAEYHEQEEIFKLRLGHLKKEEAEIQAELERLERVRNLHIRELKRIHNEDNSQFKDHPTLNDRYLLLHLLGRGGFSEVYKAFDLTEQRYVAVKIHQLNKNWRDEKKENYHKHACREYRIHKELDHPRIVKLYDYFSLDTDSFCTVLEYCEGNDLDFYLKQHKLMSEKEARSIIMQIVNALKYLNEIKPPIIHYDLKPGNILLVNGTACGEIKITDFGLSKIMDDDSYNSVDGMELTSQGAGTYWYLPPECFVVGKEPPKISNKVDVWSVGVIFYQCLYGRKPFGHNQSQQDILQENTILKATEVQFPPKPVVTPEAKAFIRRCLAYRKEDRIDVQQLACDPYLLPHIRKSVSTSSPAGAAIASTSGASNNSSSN
Chain of UniProt P08069 (whole entry, looked up): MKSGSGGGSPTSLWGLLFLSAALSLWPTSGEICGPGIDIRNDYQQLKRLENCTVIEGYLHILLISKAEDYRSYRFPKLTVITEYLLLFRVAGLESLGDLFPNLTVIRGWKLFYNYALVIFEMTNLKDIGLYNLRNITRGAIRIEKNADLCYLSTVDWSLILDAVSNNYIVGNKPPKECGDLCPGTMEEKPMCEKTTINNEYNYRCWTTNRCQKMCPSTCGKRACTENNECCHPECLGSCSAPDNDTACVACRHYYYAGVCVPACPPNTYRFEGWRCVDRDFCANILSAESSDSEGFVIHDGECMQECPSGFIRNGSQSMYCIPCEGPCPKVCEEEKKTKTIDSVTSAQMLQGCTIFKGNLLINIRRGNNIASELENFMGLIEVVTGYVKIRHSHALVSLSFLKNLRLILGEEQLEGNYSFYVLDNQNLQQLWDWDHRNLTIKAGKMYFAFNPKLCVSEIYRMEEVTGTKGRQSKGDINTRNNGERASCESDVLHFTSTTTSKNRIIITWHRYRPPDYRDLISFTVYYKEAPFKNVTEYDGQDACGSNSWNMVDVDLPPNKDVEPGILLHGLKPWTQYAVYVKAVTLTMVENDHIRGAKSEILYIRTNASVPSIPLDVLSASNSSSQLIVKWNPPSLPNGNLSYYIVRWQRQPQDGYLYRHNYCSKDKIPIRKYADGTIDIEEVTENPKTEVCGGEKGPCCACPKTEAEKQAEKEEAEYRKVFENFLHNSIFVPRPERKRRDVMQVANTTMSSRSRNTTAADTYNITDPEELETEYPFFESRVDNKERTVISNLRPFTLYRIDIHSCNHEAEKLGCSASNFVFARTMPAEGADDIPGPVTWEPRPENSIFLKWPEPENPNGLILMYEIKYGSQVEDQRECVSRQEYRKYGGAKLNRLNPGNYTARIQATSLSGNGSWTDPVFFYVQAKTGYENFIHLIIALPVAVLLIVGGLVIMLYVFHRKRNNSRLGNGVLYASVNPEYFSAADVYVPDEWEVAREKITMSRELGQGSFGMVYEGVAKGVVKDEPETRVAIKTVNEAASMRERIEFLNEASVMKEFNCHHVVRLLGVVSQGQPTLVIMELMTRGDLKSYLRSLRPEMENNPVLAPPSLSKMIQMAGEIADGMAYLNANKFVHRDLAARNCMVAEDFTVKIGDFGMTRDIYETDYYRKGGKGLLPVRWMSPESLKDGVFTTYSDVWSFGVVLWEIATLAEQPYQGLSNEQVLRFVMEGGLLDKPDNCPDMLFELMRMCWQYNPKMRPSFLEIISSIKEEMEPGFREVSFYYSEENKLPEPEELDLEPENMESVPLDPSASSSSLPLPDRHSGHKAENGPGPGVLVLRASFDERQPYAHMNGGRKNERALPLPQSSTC
Chain of UniProt P07332 (whole entry, looked up): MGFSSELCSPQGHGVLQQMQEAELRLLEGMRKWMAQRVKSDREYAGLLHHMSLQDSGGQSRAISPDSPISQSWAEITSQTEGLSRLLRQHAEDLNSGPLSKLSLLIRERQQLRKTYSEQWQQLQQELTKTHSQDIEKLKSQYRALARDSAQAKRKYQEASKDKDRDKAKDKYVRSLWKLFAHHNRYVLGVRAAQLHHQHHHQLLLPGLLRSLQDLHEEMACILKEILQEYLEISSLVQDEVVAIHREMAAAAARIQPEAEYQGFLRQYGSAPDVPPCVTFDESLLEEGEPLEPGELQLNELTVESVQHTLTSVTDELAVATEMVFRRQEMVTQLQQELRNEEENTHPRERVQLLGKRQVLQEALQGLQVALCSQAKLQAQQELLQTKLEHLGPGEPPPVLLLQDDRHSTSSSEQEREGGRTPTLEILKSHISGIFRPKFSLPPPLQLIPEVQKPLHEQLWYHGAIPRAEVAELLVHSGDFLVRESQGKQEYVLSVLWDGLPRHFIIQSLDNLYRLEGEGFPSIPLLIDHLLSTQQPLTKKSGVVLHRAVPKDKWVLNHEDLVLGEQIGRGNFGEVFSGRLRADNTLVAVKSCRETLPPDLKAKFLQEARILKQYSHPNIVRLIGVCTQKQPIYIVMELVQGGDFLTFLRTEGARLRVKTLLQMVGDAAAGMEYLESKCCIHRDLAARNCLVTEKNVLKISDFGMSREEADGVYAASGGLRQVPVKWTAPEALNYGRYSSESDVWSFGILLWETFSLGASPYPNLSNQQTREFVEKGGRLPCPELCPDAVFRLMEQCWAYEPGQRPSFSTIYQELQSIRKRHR
Chain of UniProt Q15835 (whole entry, looked up): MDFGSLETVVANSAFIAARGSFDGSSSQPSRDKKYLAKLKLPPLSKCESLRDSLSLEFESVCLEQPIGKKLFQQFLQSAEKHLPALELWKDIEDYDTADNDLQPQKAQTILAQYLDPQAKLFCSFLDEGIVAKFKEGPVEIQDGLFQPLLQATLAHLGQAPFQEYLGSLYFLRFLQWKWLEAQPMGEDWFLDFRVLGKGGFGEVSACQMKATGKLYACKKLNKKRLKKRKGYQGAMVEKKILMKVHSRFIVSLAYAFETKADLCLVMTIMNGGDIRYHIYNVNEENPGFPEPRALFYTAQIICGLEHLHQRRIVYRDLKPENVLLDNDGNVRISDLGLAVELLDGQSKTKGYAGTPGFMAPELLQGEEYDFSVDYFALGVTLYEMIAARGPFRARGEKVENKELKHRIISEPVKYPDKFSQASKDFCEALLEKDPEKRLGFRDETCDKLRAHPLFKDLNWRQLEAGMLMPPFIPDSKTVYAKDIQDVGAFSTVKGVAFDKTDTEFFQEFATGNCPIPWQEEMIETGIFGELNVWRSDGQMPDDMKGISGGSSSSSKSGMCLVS
Chain of UniProt O43318 (whole entry, looked up): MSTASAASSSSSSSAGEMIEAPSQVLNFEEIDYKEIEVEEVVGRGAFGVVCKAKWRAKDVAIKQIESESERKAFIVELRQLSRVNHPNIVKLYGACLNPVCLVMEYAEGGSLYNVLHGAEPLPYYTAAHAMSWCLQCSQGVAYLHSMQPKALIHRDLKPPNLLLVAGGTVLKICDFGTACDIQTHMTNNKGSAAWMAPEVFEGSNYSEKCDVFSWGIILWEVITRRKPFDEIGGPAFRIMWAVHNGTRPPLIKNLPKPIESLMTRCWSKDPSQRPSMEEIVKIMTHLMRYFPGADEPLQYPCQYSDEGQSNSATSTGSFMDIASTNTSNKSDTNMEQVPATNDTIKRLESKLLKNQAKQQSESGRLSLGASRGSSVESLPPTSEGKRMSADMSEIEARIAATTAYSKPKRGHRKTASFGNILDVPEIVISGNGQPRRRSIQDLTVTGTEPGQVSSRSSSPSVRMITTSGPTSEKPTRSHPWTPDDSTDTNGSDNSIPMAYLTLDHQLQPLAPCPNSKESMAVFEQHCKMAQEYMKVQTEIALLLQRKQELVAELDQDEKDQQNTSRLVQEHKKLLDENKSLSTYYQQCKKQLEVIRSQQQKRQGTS

Series 1
Host: human
Sample: microsomes or S9
Tested at: 2 µM
Time: 0.5 h
Measurement: remaining compound
SMILES = CCCNC(C)C(=O)Nc1c(C)csc1C(=O)O (centres unmarked); result = 83.1%
SMILES = CC(c1cncs1)N(C)C(=O)c1cnn(C(C)C)c1 (centres unmarked); result = 91%
SMILES = COC(=O)c1ccc(C(=O)N2CCCN(C(=O)C[C@H](N)Cc3cc(F)c(F)cc3F)CC2)cc1; result = 67.5%
SMILES = CCOc1ccc(-c2nc(C)c(C(C)=O)n2O)cc1; result = 95.8%

Series 2
SMILES: CC(C)n1cnc(-c2ccc(F)cc2)c1-c1ncc(C(=O)Nc2ccc(N3CCN(C)CC3)cc2)[nH]1
Technique: phase 2a trial
Host: idiopathic pulmonary fibrosis patients
Measurement: patients with cholecystitis
conditions = 60 mg once daily, adverse event grade 1; result = 0%
conditions = 30 mg once daily, adverse event grade 2; result = 0%
conditions = dose not given, adverse event grade 3, all dose arms pooled; result = 0%
conditions = 60 mg once daily, adverse event grade 3; result = 0%

Series 3
SMILES: CCC(=O)N[C@H]1CC[C@@H](C(=O)N(C)c2ccc(-c3nc4ccccc4o3)cc2)C1
Observed: cell-free assay
Technique: competition with immobilised ligand
Tested at: 1 µM
Measurement: remaining binding
target = Tyrosine-protein kinase ABL1, phosphorylated (ABL1, Homo sapiens, UniProt P00519, T315I); result = 89%
target = Ribosomal protein S6 kinase alpha-4, C-terminal kinase domain (RPS6KA4, Homo sapiens, UniProt O75676); result = 79%
target = TLK2 (Homo sapiens, UniProt Q86UE8); result = 100%
target = Ribosomal protein S6 kinase alpha-1, N-terminal kinase domain (RPS6KA1, Homo sapiens, UniProt Q15418); result = 100%
target = FES (Homo sapiens, UniProt P07332); result = 73%
target = MAP3K5 (Homo sapiens, UniProt Q99683); result = 100%
target = ACVR1 (Homo sapiens, UniProt Q04771); result = 85%
target = AKT1 (Homo sapiens, UniProt P31749); result = 97%
target = FGFR2 (Homo sapiens, UniProt P21802); result = 91%
target = MAP3K7 (Homo sapiens, UniProt O43318); result = 86%
target = MET (Homo sapiens, UniProt P08581); result = 100%
target = GRK1 (Homo sapiens, UniProt Q15835); result = 77%
target = PRKCH (Homo sapiens, UniProt P24723); result = 96%
target = IGF1R (Homo sapiens, UniProt P08069); result = 100%

Series 4
Organism: Sarcocystis neurona
Observed: parasite growth
Tested at: 10 µM
Time: 96 h
Notes: first screen
Relative to: untreated
Measurement: log2 fold change
SMILES = Cc1ccc(Cl)c(Nc2ccccc2C(=O)O)c1Cl; result = 0.06
SMILES = COc1ccc(OC)c(C(O)CNC(=O)CN)c1 (centres unmarked); result = 0.24
SMILES = Cc1ncc([N+](=O)[O-])n1CC(C)O (centres unmarked); result = 0.22
SMILES = C[C@H]1O[C@H](O[C@H]2[C@H](O)[C@@H](O)[C@@H](O[C@H]3[C@H](O)[C@@H](O)C(O)O[C@@H]3CO)O[C@@H]2CO)[C@H](O)[C@@H](O)[C@@H]1N[C@H]1C=C(CO)[C@@H](O)[C@H](O)[C@H]1O (some centres unmarked); result = 0.33
SMILES = CCCCC(=O)O[C@]1(C(=O)CO)CC[C@H]2[C@@H]3CCC4=CC(=O)CC[C@]4(C)[C@H]3[C@@H](O)C[C@@]21C; result = 0.03
SMILES = CCc1ccc(CCOc2ccc(CC3SC(=O)NC3=O)cc2)nc1 (centres unmarked); result = 0.39
SMILES = C[C@H](CCC(=O)O)[C@H]1CC[C@H]2[C@@H]3[C@@H](O)C[C@@H]4C[C@H](O)CC[C@]4(C)[C@H]3CC[C@]12C; result = 0.41

Some of these lines once more (series 2):
conditions = 30 mg once daily, adverse event grade 2; result = 0%
conditions = dose not given, adverse event grade 3, all dose arms pooled; result = 0%
conditions = 60 mg once daily, adverse event grade 3; result = 0%
